Measurements from different studies.
Numbered parts are unrelated; each lists some results of a single study. Changes are numbered by the printed parent chain.

Series 1
Target: RING finger protein unkempt homolog, zinc fingers 1-6, GST-SBP tag (UNK, Homo sapiens, UniProt Q9C0B0, residues 30-357)
Technique: RNA Bind-n-Seq
Molecule type: RNA
Sample: in vitro
Concentration: not given
Notes: RNA with constant flanks, human and mouse sites, ends assumed
Reference: input RNA pool
Direction: higher = stronger binding
Target sequence (chain): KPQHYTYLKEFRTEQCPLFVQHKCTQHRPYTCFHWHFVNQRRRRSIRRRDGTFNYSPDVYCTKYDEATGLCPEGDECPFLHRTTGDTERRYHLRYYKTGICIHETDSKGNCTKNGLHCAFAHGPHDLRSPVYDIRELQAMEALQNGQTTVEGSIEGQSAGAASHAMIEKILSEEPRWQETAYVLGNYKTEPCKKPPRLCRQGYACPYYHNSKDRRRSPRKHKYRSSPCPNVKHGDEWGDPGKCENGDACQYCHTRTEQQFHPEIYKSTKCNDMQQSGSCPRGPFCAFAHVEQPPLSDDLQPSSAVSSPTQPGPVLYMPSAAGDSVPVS
| Strand | bound/input enrichment [ratio] |
| --- | --- |
| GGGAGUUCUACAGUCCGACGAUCCUGGGCCUCAGUUCUGGAGCCAGCUCUGCCCGAAGUUCUGCCCCUACUUCUGUACUGGGUUCACUCCAAAAUCCCAUCCUUCAGACCCACUCAGGAUCUAUCUCUAGUCCCGAUCUUGUUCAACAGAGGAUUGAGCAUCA | 0.304 |
| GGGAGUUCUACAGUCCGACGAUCGGAGCAACUCAAGGAUUGAGGACUGGUUUUACAAAUAUACCAAGUAGAUAUGGAACUAAUAAUAGAAUUGGACAACCAAGACCAUGAUAGACUCUAACUUAUUUUUAUAAGGAAUAUUGACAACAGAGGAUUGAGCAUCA | 2.43 |
| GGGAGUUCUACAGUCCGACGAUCAGACAUUUAUUCUUUCUUGGACCUCAGAUUUACCAGACAUCUCAUGGGUUUGUGGAUGCACUUAGAUGUUUGCAAUGAGCACUGUGGCUGGCAUGCCCCAGUGUUUUGGAUACCAAUGCACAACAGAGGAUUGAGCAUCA | 0.326 |
| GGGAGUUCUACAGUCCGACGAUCUUUGGCUUGCUUUGUUUGGUGGCAAGUUGCUUACCUACUAAGCUAUAUCACUAGCCAAAAAAUAGCAGGGUUUGUGUAUUUGUUUGCUUUUAUGUAUCUGGGGGUUUUGUUUACAUGUAUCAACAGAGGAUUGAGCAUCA | 0.599 |
| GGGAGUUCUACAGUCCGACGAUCUCGCUGGACCGAAACCGGAGAGUGAGGGGUGGGAAAAGCCAGAAGCGGAAGCGGCUGAAGAAGGACCCUGGGAAGAAGAUCAAGAGAAAGAAGAAAGGAGAGUUCCCAGGAGAAAAAAGCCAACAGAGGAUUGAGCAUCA | 0.58 |
| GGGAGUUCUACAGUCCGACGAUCGGUUUGGUGUUUGGUUUUUGUUUGUUUGUUUUACUUUUUAAAUACAACACGUACAGUUUCAUUAGCCCCAGGCCUUGUCAUCCUGUGUUCAUUCAAAUUGAGAUACAAUCUAAAAUUCAUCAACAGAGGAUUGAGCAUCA | 0.116 |
| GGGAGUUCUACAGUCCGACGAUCCUGGACUUCCACCGCUGUCAGAAGGCAAUGACCGCUAAAGGAGGCGAUAUCUCUGUGUGCGAAUGGUACCAGCGUGUGUACCAGUCCCUCUGCCCCACAUCCUGGGUCACAGACUGGGAUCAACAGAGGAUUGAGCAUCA | 0.0773 |
| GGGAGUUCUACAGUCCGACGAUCCCCCCUCGGAAGAAAAGGGCCCGGGCAGACCCCACUGUUGAAAGUGAGGAGGCGUUUAAGAAUAGAAUGGAGGUUAAAGUGAAGAUUCCUGAAGAAUUAAAACCAUGGCUUGUUGAGGACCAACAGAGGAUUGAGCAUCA | 0.767 |

Series 2
Target: RNA binding protein fox-1 homolog 2, RRM domain, GST-SBP tag (RBFOX2, Homo sapiens, UniProt O43251-10, residues 100-194)
Technique: RNA Bind-n-Seq
Molecule type: RNA
Sample: in vitro
Concentration: 365 nM
Notes: natural RNA segment, single round, ends assumed
Reference: no-protein control
Direction: higher = stronger binding
Target sequence (chain): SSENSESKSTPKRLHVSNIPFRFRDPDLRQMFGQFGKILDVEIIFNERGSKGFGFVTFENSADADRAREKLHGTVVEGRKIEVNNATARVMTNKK
| Strand | RBNS enrichment (R) |
| --- | --- |
| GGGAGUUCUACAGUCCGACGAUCGAUGAAGUGCAACUUUCAAAAACAUUUUUGAUGACAUCACCAGCCUACUGCAGAAGUGCAGGGCACCAGUAAACACCAUGUAUUAUUGAAGAUGAAUCUGUUUGUAUGUAUGGAAUUCUCGGGUGCCAA | 0.574 |
| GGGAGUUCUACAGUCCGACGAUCUGAAGGCCCUCCACAGUGGACAGAGCAACUUCCUUUCCAGCCUCUGCUGGUAGCAUGCUGCAGCUUCUGUGUUAAAGGUCCUCUGGAGCUCGUGUAAGACAGGAAGAACAUGGAAUUCUCGGGUGCCAA | 1.47 |
| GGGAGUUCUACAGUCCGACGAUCUGUUGUGUCUUCCCCCAGGGCCUGUCCUGUACCGAGCUCUGUCUGUUCCAGCCUUCAUCCUUCCUGGCUGUUGCUUUUCCUCUUAAGGGCCUCAGAACUCUUGCUCUUCCUGGAAUUCUCGGGUGCCAA | 0.517 |
| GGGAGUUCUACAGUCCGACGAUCGGUUGGGUUUAGAAAGAUCUCAGGAAAAUGAGUUUCUCUUCCCUCAGGGUGGCUGUGAUACAGGUUCCCCAUGUCCUUGCCGUGGGUCAUCCUUGCUGUGGGUCAUCCUUUGGAAUUCUCGGGUGCCAA | 0.277 |
| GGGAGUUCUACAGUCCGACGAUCUAAAAAUUCUAAUUCCUCAGGUUUGGCCUUUUAAGUUAUGGCUGAAGACCUUUAAUGAUACUUAUGAUGCACUCAGUGCCAUACAAUAGUGUUUUAAGAAGCACAUGGCCUGGAAUUCUCGGGUGCCAA | 0.508 |
| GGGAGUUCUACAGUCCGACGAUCCUGGUACCUGGGGUAGCCGAGGUUGCCUUCCCAUCCCUCCUUCAUCACCGGUGGAGUCCCAGGGUGACAGUCCCAGCCUGCAUUUUUGGUGGAAAAUUAGAUGGAGUGAGUGGAAUUCUCGGGUGCCAA | 0.48 |
| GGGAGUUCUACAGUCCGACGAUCUGCCACAUUGGUUAAGUGCCAUCAUUUGUAAUGCAAUGUGUCACUUGAAAAGAGAUUUGAAGAAACUGACAACUUCAAAAACAAAUGAGAAGCCCAAGGAACUGUGAGCAUGGAAUUCUCGGGUGCCAA | 5.5 |
| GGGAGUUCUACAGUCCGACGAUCAGAACUCUGAUUGUGGGUAAUCCAUAAGCUUCCUCUACAGGCUCCCCGCUUGGUUCUCACUUCUGCCUUACUUCACUUUCUGAUCCAUCUCUCUCUUCAGCCGCUCCACAUGGAAUUCUCGGGUGCCAA | 0.967 |

Series 3
Target: ABI1, truncated, D143A, DHFR fusion (Arabidopsis thaliana)
Technique: DHFR PCA, deep sequencing
Sample: yeast
Notes: methotrexate growth selection, single substitutions
With: (+)-ABA 58 µM
Reference: wild-type fitted maximum
Direction: higher = stronger binding
Starting sequence: PYL1, truncated, DHFR fusion (Arabidopsis thaliana); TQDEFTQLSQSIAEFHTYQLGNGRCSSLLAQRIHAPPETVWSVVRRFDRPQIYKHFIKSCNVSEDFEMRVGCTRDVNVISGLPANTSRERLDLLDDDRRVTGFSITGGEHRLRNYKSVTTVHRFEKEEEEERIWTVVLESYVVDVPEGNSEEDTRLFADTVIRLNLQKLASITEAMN
| Change | relative binding score [%] |
| --- | --- |
| V161D | 1.54 |
| V143E | -0.37 |
| N61L | 79.8 |
| V62Q | 35.8 |
| H16E | 6.2 |
| Q31E | 54.5 |
| L20V | 95.6 |
| R123D | 88.8 |
| D153H | 54.3 |
| W134M | 96.4 |
| S80G | 23.4 |
| K58G | 64.5 |
| R90G | -12.9 |
| S87M | 5.97 |
| F124N | 58.8 |
| V43M | 71.6 |
| F5R | 87.5 |
| G81P | 14.6 |
| R45G | 18.5 |
| R90F | 7.18 |
| A84Y | 55.9 |
| Y18W | 88.3 |
| A35F | -7.36 |
| L20T | 92.3 |
| L164R | 83.3 |

Series 4
Target: Sal-like protein 4, full length isoform B (SALL4, Homo sapiens, UniProt Q9UJQ4-2, residues 1-616)
Technique: universal PBM
Molecule type: double-stranded DNA, one strand shown
Sample: in vitro
Concentration: not given
Notes: 8-mer, flanks averaged, mean of replicates
Direction: higher = stronger binding
Construct (chain): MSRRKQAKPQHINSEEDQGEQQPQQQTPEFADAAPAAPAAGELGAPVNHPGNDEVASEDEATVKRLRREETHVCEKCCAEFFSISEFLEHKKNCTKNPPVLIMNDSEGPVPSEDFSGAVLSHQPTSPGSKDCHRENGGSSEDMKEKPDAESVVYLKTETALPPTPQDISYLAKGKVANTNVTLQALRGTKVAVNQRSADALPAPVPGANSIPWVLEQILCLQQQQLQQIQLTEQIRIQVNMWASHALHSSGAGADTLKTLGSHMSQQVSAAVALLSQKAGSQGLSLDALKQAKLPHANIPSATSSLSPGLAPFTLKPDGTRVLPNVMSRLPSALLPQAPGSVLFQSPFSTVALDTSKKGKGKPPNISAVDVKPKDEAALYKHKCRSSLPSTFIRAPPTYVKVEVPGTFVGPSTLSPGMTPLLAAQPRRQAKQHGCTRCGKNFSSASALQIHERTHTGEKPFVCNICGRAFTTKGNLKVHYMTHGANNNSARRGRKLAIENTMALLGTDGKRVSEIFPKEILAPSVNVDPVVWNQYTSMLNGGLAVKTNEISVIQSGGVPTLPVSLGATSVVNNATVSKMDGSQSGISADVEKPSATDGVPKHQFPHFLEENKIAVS
| Strand | E-score |
| --- | --- |
| AATCTACG | 0.0215 |
| AGCTGCGA | -0.185 |
| ACGTAACC | -0.0296 |
| GCGCTGCC | -0.313 |
| GAAAGTGC | -0.117 |
| GCGCTGAC | -0.232 |
| CGGCATAG | -0.0591 |
| TCACAGGA | 0.0731 |
| CGAGTGGC | -0.189 |
| ACAAATAC | 0.141 |
| AGACGACG | -0.185 |
| CACGCGCG | -0.182 |
| ACCTGTAG | -0.0916 |
| TCCCTCAA | -0.0882 |
| TCACAAAA | 0.104 |
| ATTATTTG | 0.357 |
| ACCCTAAC | -0.0111 |
| AGGTGACT | 0.0266 |
| CTCTGCGC | -0.348 |
| AACGGGGT | -0.306 |
| CCCTCGGA | -0.133 |
| ATCCCGCC | -0.338 |
| AAGACAGA | 0.132 |
| AATCTCGA | 0.097 |
| ACGAGGGA | 0.0187 |

A few entries again (series 4):
| Strand | E-score |
| --- | --- |
| AGCTGCGA | -0.185 |
| AGACGACG | -0.185 |
| CACGCGCG | -0.182 |
| GAAAGTGC | -0.117 |
| GCGCTGAC | -0.232 |
| ACAAATAC | 0.141 |
| TCCCTCAA | -0.0882 |
